Assay results collected from several papers.
Lines come from different studies, so protocols differ. pIC50: −log10 of the molar value.

`CC(C)N1CCC(NC2CCN(c3cccc(-c4cc5cc(F)ccc5[nH]4)c3)CC2)CC1` gave a CC50 of 4.17 µM (SW-620).
For `Fc1ccc(CNc2ncnc3ccc(F)cc23)cc1`, the maximum inhibition was 14.7% (human coronavirus OC43; virus-induced cell killing; MRC-5; screen).
The IL-6 reduction of `O=C1CCP(=S)(c2ccccc2)CC1` is reported as 89.8% (SW-620; ELISA; concentration not given, at IC50; relative to: untreated).
`CCN(CC)c1ccc(C=NNC(=O)CSc2nc3ccccc3c(=O)n2Cc2ccc(S(N)(=O)=O)cc2)c(O)c1` gave a CC50 of over 100 µM (SW-620; NCI five-dose screen).
`Cn1cncc1C1=CN(c2ncnc3[nH]cnc23)CCS1` gave a CC50 of over 200 µM (SW-620; colon cancer).
`CC(c1cc2ccccc2s1)N(O)C(N)=O` (stereo not drawn) gave a maximum inhibition of 0% (human coronavirus OC43; virus-induced cell killing; MRC-5; maximum over 10 doses).
`Nc1ncc(-c2nc(N3CCOCC3)nc(N3CCOCC3)n2)c(C(F)F)n1` has a GI50 of 300 nM (SW-620; 72 h).
`O=C1CCP(=[Se])(c2ccccc2)CC1` gave a selectivity index of 1 (SW-620; MTT; 72 h; relative to: IC50 HaCaT over IC50 SW-620).
The GI50 of `COc1cc(CCC[P+](c2ccccc2)(c2ccccc2)c2ccccc2)c(OC)c2c1OCO2.[I-]` is reported as -5.74 log M (SW-620; SRB).
For `COc1c(C)c2c(c(O)c1C/C=C(\C)CCC(=O)O)C(=O)OC2`, the pIC50 was 6.46 (SW-620; cell proliferation; colon cancer).
For `COc1c(CCC[P+](c2ccccc2)(c2ccccc2)c2ccccc2)cc2c(c1OC)OCO2.[I-]`, the LC50 was over -4 log M (SW-620; SRB).
With `S=P1(c2ccccc2)CCCCC1` the selectivity index was 1 (SW-620; MTT; 72 h; relative to: IC50 HaCaT over IC50 SW-620).

Some of these lines once more:
The IL-6 reduction of `O=C1CCP(=S)(c2ccccc2)CC1` is reported as 89.8% (SW-620; ELISA; concentration not given, at IC50; relative to: untreated).
